# Published values of several laboratories.
# Numbered parts are unrelated; each lists some results of a single study. Substitutions count along the parent as printed.

# Series 1 — target: CCNE2, cyclin fold, Cln2 fusion (human); method: yeast growth competition, sequencing; sample: yeast; setting: strong parent motif; baseline: not given; reading: higher = stronger binding
# Starting sequence: INSM1 docking peptide (human); PKAIRKLHFEDEV
Change,normalised enrichment score
PKAIRKLVFEDEV [H8V],2.39
PKAIRKLHWEDEV [F9W],0.885
PKAIRKLHFEREV [D11R],1.41
PKAIRGLHFEDEV [K6G],-0.257
PKAIRKLHFEDKV [E12K],2.03

# Series 2 — method: universal PBM; form: double-stranded DNA, one strand shown; sample: in vitro; tested at: 600 nM; reading: higher = stronger binding
# Target: Sal-like protein 4, full length isoform A (SALL4, Homo sapiens, UniProt Q9UJQ4, residues 1-1053)
# Sequence of UniProt Q9UJQ4 (whole entry, looked up): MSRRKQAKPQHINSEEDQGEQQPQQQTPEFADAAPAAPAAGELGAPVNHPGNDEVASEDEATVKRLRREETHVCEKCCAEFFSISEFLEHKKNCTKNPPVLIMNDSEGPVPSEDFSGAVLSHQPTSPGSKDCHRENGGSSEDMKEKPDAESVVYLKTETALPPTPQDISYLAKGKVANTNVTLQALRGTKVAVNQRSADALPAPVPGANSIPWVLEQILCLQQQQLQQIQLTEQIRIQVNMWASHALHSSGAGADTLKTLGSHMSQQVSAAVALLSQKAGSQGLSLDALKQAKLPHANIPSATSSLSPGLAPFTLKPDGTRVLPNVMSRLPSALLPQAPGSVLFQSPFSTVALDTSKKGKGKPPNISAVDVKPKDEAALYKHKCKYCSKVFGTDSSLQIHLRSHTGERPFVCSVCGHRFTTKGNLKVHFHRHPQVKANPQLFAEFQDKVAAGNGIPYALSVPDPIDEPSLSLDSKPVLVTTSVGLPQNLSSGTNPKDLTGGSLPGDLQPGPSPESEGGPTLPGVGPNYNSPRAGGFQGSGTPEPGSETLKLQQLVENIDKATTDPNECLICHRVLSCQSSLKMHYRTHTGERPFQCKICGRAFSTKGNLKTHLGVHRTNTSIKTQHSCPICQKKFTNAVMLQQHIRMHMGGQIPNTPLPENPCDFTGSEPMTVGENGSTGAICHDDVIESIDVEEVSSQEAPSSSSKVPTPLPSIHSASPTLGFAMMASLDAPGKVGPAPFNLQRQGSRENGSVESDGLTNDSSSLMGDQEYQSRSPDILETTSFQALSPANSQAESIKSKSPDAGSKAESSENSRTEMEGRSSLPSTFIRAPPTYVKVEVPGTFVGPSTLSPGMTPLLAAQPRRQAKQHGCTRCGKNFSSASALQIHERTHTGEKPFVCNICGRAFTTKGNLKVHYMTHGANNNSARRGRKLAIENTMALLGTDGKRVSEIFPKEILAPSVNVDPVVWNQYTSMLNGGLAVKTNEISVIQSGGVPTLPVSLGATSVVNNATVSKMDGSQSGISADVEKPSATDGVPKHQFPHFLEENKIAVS
# Setting: 8-mer, flanks averaged, mean of replicates
Sequence,E-score
ATGACTAG,0.161
CCCTTACA,0.0687
GCAGCCGA,-0.219
CCCATAGA,-0.0824
CGACGGCA,-0.32
GTCAACCA,0.0141
GCGCGCAC,-0.2

# Series 3 — method: RNA Bind-n-Seq; form: RNA; sample: in vitro; tested at: not given; baseline: input RNA pool; reading: higher = stronger binding
# Target: RING finger protein unkempt homolog, zinc fingers 1-6, GST-SBP tag (UNK, Homo sapiens, UniProt Q9C0B0, residues 30-357)
# Sequence of UniProt Q9C0B0 (30-357, looked up): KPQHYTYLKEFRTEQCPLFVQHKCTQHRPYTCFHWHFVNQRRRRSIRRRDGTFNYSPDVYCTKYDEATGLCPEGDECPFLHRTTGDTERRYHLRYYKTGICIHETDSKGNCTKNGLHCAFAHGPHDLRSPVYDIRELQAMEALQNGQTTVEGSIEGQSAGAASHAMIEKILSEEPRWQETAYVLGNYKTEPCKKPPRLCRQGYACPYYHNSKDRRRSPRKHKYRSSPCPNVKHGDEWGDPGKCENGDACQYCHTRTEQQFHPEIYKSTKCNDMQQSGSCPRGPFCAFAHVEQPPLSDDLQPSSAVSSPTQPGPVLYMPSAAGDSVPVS
# Setting: RNA with constant flanks, human and mouse sites, ends assumed
# All sequences stand within: GGGAGUUCUACAGUCCGACGAUC … CAACAGAGGAUUGAGCAUCA
Sequence,bound/input enrichment [ratio]
GUCUGUGGCCGCAGUGACACCAUCGACACCGUCUCUGUGCCGUAUGUCUUCCGGUACUUUGUAGCUGAGCUGGCAGCCAUGAACAUCAAAGUGAAACUGGAUGUCAUCUGACUUGAUCCC,0.129
UACAUGGCGAAGAAGAAACCAGUUCCAGAGCAGAAAGGAACAAAAGAUUCUAGACAAGGUUUCCAUCCACCUAUGCCUGGAUUUGGUACAGCUGCUUUAAACACAUCUCCUGAGAGUCCU,0.195
GAGGCAGAAAAAAUGGACGGGGCAGCUUCACAAGGCAAGUCUUCAUGCUCGGUGAUGUGAUUCUGCUGCAAAGCCUGAGGACACUGGGAAUAUAUUCUACCUGAAGAAGCAAACUGCCCG,0.199
UGUCUUCAAUGCAUUCCAUGGCAUCACAUCUGUCCUGGGGCCUGACCCGUCCACCCUUCAGUGUCUCUGUCUUUUAAGAUCUUCAACUGCUUCUUUAUCCCCGCCCCUCCAGCUUAUUUU,0.366
UUGGAAGGGCUUCACACCAAGCUGGGGAACAUCAAGACCUUAAACCUGGCAGGCAACCUCCUAGAGAGUCUGAGUGGCCUGCACAAGCUCUACUCACUGGUCAACCUGGAUCUCCGGGAC,0.141
AAACAAUUGCUCUAUGAUUUCCCCUGGACAAAUGUUGGGAAGUUGGUGUUUGUGGGCAAGAAGUUUGAGAUUUUGCCAGAUGGCCUUCCCUCCGCCAGGAAGCUGGUCUACUACACAGGG,0.154
AUAGGGCACUUACUAACGGAGCUUACAGAACUGGAAGUUGCUCUGGAUGAGUCAGUGGUGAGUGAAUGUAAAGGCCUAGGACAUUACUGUACACUACUGUAGACUUUAUAAACACCGUAC,0.313

# Other studies, line by line
Substance,target,test,system,conditions,scale,quantity,result
"PhoQ, residues 284 288 289 292 302 303 TGYLSA","PhoP, residues 12 14 15 18 19 YHFSH (Escherichia coli, UniProt P23836)","Sort-seq, measured: YFP reporter",E. coli,"PhoQ-PhoP variant library, with: 10 µM Mg2+","baseline: high Mg2+ state, higher = stronger signaling",fold induction,6.48

# Repeated from above (series 2):
Sequence,E-score
ATGACTAG,0.161
GTCAACCA,0.0141
